Measurements gathered from unrelated publications.
A part holds a random share of what one study measured.
UniProt Q15349, sequence (whole entry, looked up): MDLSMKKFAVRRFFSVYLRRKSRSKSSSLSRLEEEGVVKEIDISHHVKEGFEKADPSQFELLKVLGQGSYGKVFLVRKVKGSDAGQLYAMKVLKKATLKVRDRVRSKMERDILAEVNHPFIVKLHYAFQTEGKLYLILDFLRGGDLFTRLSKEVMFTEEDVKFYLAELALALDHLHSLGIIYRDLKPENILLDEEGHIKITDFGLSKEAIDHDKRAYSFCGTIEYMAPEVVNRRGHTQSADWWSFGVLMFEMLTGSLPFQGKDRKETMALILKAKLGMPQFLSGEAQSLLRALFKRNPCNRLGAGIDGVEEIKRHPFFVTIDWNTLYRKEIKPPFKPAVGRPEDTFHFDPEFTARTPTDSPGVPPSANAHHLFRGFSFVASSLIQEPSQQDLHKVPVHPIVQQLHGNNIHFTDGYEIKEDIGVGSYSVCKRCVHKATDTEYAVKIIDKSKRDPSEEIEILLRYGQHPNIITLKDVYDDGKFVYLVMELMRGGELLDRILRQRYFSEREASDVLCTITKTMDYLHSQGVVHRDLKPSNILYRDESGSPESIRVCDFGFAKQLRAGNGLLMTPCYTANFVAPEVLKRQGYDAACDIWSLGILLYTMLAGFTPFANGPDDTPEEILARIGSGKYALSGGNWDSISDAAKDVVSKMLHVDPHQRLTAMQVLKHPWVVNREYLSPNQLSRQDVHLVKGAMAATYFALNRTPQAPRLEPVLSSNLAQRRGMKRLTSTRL
UniProt P36507, sequence (whole entry, looked up): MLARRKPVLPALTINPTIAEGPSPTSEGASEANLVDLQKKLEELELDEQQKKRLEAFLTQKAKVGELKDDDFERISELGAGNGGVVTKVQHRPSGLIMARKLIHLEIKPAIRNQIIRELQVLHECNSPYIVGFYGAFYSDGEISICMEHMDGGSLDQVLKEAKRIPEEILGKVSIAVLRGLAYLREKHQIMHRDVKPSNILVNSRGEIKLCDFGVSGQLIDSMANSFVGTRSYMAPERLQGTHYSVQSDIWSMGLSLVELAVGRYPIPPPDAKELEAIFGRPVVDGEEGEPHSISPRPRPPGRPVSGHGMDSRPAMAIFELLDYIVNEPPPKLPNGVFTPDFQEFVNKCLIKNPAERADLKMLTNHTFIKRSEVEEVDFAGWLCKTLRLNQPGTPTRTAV
UniProt Q6ZWH5, sequence (whole entry, looked up): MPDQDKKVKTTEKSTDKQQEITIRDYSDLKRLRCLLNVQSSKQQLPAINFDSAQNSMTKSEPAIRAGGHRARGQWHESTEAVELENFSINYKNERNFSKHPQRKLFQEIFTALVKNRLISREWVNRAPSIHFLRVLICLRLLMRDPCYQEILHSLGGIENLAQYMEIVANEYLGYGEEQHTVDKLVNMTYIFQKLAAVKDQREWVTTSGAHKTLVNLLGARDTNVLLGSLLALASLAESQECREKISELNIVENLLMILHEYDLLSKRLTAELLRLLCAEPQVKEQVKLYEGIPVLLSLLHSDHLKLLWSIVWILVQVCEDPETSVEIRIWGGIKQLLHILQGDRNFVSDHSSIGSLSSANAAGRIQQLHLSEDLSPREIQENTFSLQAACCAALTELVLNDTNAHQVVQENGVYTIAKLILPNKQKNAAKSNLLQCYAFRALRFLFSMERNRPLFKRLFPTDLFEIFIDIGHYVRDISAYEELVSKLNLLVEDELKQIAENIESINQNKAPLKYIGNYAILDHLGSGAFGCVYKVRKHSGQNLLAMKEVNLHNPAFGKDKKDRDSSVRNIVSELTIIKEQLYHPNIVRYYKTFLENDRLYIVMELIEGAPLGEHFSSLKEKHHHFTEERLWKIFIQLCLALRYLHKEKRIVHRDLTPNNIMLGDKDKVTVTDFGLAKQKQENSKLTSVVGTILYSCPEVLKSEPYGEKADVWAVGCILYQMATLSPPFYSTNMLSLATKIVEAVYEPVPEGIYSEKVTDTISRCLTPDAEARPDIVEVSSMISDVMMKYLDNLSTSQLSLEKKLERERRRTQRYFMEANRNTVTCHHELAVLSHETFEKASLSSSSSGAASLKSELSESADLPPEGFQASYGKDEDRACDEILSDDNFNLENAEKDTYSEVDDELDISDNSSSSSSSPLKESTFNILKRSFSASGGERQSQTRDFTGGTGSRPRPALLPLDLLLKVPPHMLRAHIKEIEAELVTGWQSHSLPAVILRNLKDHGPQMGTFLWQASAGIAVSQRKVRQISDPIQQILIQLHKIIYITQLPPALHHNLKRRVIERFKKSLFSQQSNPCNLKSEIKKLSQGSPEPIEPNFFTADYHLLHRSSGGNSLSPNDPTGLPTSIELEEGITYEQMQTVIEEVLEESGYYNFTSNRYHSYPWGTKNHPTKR
UniProt P27361, sequence (whole entry, looked up): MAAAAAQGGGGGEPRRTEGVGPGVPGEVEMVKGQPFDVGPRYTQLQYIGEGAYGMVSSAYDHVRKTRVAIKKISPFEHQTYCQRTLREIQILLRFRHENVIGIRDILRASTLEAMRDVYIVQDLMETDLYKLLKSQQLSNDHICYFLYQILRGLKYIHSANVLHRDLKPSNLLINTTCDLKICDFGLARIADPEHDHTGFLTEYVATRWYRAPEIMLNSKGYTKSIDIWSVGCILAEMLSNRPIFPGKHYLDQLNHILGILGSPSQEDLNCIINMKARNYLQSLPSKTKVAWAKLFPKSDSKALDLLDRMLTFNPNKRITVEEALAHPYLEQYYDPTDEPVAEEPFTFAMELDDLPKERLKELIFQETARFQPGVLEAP
UniProt Q8IYT8, sequence (whole entry, looked up): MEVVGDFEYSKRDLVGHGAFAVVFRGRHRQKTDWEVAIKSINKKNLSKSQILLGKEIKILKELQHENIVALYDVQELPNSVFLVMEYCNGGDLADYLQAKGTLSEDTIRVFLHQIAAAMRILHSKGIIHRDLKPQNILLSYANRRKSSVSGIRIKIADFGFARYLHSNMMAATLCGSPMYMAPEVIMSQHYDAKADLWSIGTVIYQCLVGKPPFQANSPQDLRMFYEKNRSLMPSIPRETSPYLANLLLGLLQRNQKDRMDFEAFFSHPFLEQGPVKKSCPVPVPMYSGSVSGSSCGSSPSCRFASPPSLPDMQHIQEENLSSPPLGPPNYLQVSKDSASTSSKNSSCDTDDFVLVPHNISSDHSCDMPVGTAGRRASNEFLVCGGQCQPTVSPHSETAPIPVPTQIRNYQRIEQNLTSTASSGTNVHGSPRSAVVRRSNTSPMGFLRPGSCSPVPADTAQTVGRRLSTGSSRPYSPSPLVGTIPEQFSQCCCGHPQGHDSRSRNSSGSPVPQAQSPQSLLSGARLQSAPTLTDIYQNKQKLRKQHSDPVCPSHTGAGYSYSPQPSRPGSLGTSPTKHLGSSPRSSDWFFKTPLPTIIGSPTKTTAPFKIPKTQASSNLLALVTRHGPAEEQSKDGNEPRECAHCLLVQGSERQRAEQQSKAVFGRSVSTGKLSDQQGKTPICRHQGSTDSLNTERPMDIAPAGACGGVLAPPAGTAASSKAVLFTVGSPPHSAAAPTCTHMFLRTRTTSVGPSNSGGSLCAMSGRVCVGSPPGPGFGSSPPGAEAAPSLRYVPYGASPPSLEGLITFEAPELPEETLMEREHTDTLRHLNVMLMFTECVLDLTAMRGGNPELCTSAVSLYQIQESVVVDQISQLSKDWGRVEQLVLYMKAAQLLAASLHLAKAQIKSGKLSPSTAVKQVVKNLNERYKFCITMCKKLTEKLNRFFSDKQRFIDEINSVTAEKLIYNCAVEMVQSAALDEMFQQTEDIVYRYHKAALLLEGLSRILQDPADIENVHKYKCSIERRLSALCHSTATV
UniProt Q12866, sequence (whole entry, looked up): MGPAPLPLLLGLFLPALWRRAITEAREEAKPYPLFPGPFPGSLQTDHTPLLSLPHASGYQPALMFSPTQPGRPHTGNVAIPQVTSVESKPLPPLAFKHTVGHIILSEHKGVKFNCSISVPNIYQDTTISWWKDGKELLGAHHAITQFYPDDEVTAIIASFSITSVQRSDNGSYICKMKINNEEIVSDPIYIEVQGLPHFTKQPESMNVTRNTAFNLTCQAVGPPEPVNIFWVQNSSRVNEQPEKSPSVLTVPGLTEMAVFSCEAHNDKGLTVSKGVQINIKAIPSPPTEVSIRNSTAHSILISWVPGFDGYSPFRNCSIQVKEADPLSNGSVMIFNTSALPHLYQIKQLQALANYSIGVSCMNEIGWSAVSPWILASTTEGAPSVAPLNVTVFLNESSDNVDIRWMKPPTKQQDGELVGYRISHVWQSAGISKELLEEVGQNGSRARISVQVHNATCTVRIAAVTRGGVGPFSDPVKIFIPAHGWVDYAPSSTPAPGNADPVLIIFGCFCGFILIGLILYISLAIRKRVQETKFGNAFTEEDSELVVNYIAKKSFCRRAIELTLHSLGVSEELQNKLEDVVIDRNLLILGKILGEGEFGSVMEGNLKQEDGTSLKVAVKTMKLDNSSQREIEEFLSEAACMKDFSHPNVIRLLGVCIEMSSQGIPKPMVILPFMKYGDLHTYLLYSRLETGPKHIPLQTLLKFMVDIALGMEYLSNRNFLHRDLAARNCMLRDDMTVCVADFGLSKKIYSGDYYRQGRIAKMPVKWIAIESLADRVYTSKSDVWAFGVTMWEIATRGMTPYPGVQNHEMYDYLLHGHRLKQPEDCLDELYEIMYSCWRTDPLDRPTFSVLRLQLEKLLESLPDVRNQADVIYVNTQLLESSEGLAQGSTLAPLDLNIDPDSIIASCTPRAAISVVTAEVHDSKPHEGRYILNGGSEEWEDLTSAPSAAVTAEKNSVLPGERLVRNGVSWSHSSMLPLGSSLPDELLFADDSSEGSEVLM
UniProt Q9HC98, sequence (whole entry, looked up): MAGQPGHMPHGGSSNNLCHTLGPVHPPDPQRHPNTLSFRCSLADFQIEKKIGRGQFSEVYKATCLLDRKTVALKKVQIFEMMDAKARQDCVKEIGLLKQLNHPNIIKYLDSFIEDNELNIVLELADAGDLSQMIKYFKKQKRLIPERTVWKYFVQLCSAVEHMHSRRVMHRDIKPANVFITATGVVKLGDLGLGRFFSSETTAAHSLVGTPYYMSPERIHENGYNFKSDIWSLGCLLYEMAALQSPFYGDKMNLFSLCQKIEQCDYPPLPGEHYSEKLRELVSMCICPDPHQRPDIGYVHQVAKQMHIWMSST

Sample 1
Sample: hydrocarbon/water
pH: 7.4
`CC(C)CC1NC(=O)CN(CC2CCOCC2)C(=O)C2CCCN2C(=O)C(CC(C)C)NC(=O)C(C)N(C)C(=O)C(CC(C)C)NC(=O)CN(CCCOC(C)C)C(=O)C2CCCN2C(=O)C(C)NC(=O)C(C)N(C)C1=O` (centres unmarked) gave a logD of 1.21.
For `CC(C)CC1NC(=O)CN(CC2CCCCC2)C(=O)C2CCCN2C(=O)C(CC(C)C)NC(=O)C(C)N(C)C(=O)C(CC(C)C)NC(=O)CN(CCCOC(C)C)C(=O)C2CCCN2C(=O)C(Cc2ccccc2)NC(=O)C(C)N(C)C1=O` (centres unmarked), the logD was 3.28.
For `CC(C)C[C@@H]1NC(=O)CN(CCCOC(C)C)C(=O)[C@H](C)NC(=O)[C@H](CC(C)C)N(C)C(=O)[C@H]2CCCN2C(=O)[C@H](Cc2ccccc2)NC(=O)CN(CC2CCCCC2)C(=O)[C@H](C)NC(=O)[C@H](CC(C)C)N(C)C(=O)[C@H]2CCCN2C1=O`, the logD was 2.66.
`CCN1CC(=O)N[C@@H](CC(C)C)C(=O)N2CCC[C@@H]2C(=O)N(C)[C@@H](CC(C)C)C(=O)N[C@@H](C)C(=O)N(CC2CCCCC2)CC(=O)N[C@@H](C)C(=O)N2CCC[C@@H]2C(=O)N(C)[C@@H](CC(C)C)C(=O)N[C@@H](C)C1=O` gave a logD of 1.42.
With `CC(C)CC1NC(=O)CN(CC2CCCCC2)C(=O)C2CCCN2C(=O)C(CC(C)C)NC(=O)C(C)N(C)C(=O)C(CC(C)C)NC(=O)CN(Cc2ccc3c(c2)OCO3)C(=O)C2CCCN2C(=O)C(Cc2ccccc2)NC(=O)C(C)N(C)C1=O` (centres unmarked) the logD was ≥ 3.4.
`CCC[C@@H]1NC(=O)[C@H](C)N(C)C(=O)[C@H](CC(C)C)NC(=O)Cn2cc(nn2)CN(C)C(=O)[C@H](CC(C)C)NC(=O)[C@H](C)N(C)C(=O)[C@H](CC(C)C)NC(=O)CN(CC)C(=O)[C@H]2CCCN2C1=O` gave a logD of -0.997.
`CC(C)C[C@@H]1NC(=O)[C@H](C)N(C)C(=O)[C@H](CC2CCCCC2)NC(=O)[C@H](CC(C)C)N(C)C(=O)[C@H]2CCCN2C(=O)[C@H](CC(C)C)NC(=O)[C@H](C)N(C)C(=O)[C@H](CC(C)C)NC(=O)Cn2cc(nn2)CN(C)C1=O` gave a logD of 1.94.
For `CC(C)CC1NC(=O)CN(CC2CCCCC2)C(=O)C2CCCN2C(=O)C(CC(C)C)NC(=O)C(C)N(C)C(=O)C(CC(C)C)NC(=O)CN(Cc2ccc3c(c2)OCO3)C(=O)C2CCCN2C(=O)C(C)NC(=O)C(C)N(C)C1=O` (centres unmarked), the logD was ≥ 3.4.

Sample 2
SMILES: O=C(N[C@H]1CCCCC/C=C\C2C[C@@]2(C(=O)O)NC(=O)[C@@H]2C[C@@H](Oc3ccncc3)CN2C1=O)OC1CCCC1 (some centres unmarked)
Technique: competition with immobilised ligand
Tested at: 1 µM
Myosin-IIIa (MYO3A, Homo sapiens, UniProt Q8NEV4); binding — remaining binding: 94%.
For Tyrosine-protein kinase ABL1, non-phosphorylated (ABL1, Homo sapiens, UniProt P00519, Q252H); binding: remaining binding read 65%.
The remaining binding was 97% (Serine/threonine-protein kinase 25 (STK25, Homo sapiens, UniProt O00506); binding).
For Microtubule-associated serine/threonine-protein kinase 1 (MAST1, Homo sapiens, UniProt Q9Y2H9); binding: remaining binding read 82%.
Aurora kinase A (AURKA, Homo sapiens, UniProt O14965); cell-free assay — remaining binding: 92%.
For Mitogen-activated protein kinase 9 (MAPK9, Homo sapiens, UniProt P45984); binding: remaining binding read 94%.
The remaining binding was 81% (Serine/threonine-protein kinase Nek10 (NEK10, Homo sapiens, UniProt Q6ZWH5); binding).

Sample 3
SMILES: CCN(CC)CCNC(=O)c1c(C)[nH]c(/C=C2\C(=O)Nc3ccc(Cl)cc32)c1C
Effect on: enzyme activity
Action: inhibitor
Tested at: 0.5 µM
Baseline: control
Dual specificity mitogen-activated protein kinase kinase 2 (MAP2K2, Homo sapiens, UniProt P36507) — remaining activity: 41.4%.
It gave 43% for remaining activity (Serine/threonine-protein kinase ULK2 (ULK2, Homo sapiens, UniProt Q8IYT8)).
For Serine/threonine-protein kinase ULK3 (ULK3, Homo sapiens, UniProt Q6PHR2): remaining activity read 21.6%.
It gave 10% for remaining activity (Ribosomal protein S6 kinase alpha-2 (RPS6KA2, Homo sapiens, UniProt Q15349)).
The remaining activity was 98.1% (Mitogen-activated protein kinase kinase kinase 5 (MAP3K5, Homo sapiens, UniProt Q99683)).
Rhodopsin kinase GRK7 (GRK7, Homo sapiens, UniProt Q8WTQ7) — remaining activity: 62.2%.
For Tyrosine-protein kinase Mer (MERTK, Homo sapiens, UniProt Q12866): remaining activity read 11.5%.
For Serine/threonine-protein kinase Nek6 (NEK6, Homo sapiens, UniProt Q9HC98): remaining activity read 97.8%.
Macrophage-stimulating protein receptor (MST1R, Homo sapiens, UniProt Q04912) — remaining activity: 96.7%.
Mitogen-activated protein kinase 3 (MAPK3, Homo sapiens, UniProt P27361) — remaining activity: 98.8%.
Ephrin type-A receptor 3 (EPHA3, Homo sapiens, UniProt P29320) — remaining activity: 92.5%.
It gave 16.3% for remaining activity (Serine/threonine-protein kinase TBK1 (TBK1, Homo sapiens, UniProt Q9UHD2)).

Sample 4
Cell line: A-375
Tested at: 100 µM
Time: 18 h
The viability of `O=C(OOC(=O)c1ccccc1)c1ccccc1` is reported as 90.3%.
`O=C(O)CCc1nc(-c2ccccc2)c(-c2ccccc2)o1` gave a viability of 87.2%.
The viability of `Nc1ccc(S(=O)(=O)Nc2ncccn2)cc1` is reported as 104%.
`C[C@H](CCC(=O)O)[C@H]1CC[C@H]2[C@@H]3C(=O)C[C@@H]4CC(=O)CC[C@]4(C)[C@H]3CC(=O)[C@]12C` gave a viability of 84.5%.
`CCS(=O)(=O)CCn1c([N+](=O)[O-])cnc1C` has a viability of 94.4%.
`NC(=O)N[C@@H](CCC(=O)O)C(=O)O` has a viability of 93.6%.
`OC[C@H]1O[C@@H](c2ccc(F)c(Cc3cc4ccccc4s3)c2)[C@H](O)[C@@H](O)[C@@H]1O` has a viability of 80%.
With `CCN(CC)CCOc1ccc2c(c1)C(=O)c1cc(OCCN(CC)CC)ccc1-2` the viability was 44%.

Repeated from above (sample 3):
It gave 10% for remaining activity (Ribosomal protein S6 kinase alpha-2 (RPS6KA2, Homo sapiens, UniProt Q15349)).
The remaining activity was 98.1% (Mitogen-activated protein kinase kinase kinase 5 (MAP3K5, Homo sapiens, UniProt Q99683)).
Rhodopsin kinase GRK7 (GRK7, Homo sapiens, UniProt Q8WTQ7) — remaining activity: 62.2%.
For Tyrosine-protein kinase Mer (MERTK, Homo sapiens, UniProt Q12866): remaining activity read 11.5%.
